Measurements gathered from unrelated publications.
Every numbered part comes from another study and shows a few of its results, in no order. Substitutions count along the parent as printed.

Block 1
Target: ABI1, truncated, D143A, DHFR fusion (Arabidopsis thaliana)
Method: DHFR PCA, deep sequencing
Matrix: yeast
Setting: methotrexate growth selection, single substitutions
Together with: (+)-ABA 0.0091 µM
Reference: wild-type fitted maximum
Reading: higher = stronger binding
Starting sequence: PYL1, truncated, DHFR fusion (Arabidopsis thaliana); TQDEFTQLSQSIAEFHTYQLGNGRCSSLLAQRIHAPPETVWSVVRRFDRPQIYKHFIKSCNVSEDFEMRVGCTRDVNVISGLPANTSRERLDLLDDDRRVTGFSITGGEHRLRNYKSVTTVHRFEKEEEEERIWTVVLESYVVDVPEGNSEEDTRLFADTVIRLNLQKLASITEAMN; partner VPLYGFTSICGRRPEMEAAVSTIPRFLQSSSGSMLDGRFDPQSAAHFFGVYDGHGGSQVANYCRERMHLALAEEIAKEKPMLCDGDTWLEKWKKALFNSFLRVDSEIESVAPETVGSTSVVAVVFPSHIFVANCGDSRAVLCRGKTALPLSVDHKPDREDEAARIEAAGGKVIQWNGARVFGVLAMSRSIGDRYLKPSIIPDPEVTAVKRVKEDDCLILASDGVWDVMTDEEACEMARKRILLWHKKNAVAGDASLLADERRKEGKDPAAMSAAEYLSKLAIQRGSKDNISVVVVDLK
Variant	relative binding score [%]
F15S	2.25
S11F	14.8
D92M	-2.28
M176Q	17.2

Block 2
Target: Interferon regulatory factor 5, full length, phosphomimetic (IRF5, Homo sapiens, UniProt Q13568-2, residues 1-514, K96S/S451D/S453D/S456D/S462D)
Method: protein-binding microarray
Molecule type: double-stranded DNA, one strand shown
Matrix: in vitro
Tested at: 250 nM
Setting: 60-bp whole probe
Together with: salmon DNA 0.4 mg/ml
Reference: random background probes
Reading: higher = stronger binding
Constant ends, left off below: GCCTAGCAC … GTCTTGATTCGCTTGACGCTGCTG
Sequence	log fluorescence
GACGATTTCGGGGCTGGAGACGTGCTA	1.27 z-score
CACGGTTTCCTTATCCTGACGTGCTAG	0.776 z-score
TTAGATATCGGGTAGCGATTAGTGCTA	2.3 z-score
GACGGTCTGGGTCTCGGGACGTGCTAG	-0.753 z-score
GACGGACTGGGTATCGGGATGTGCTAG	0.624 z-score
TTAGGACTGGACACTGGTTTAGTGCTA	-0.492 z-score

Block 3
Target: CCNB2, cyclin fold, Cln2 fusion (human)
Method: yeast growth competition, sequencing
Matrix: yeast
Setting: weak parent motif
Reference: not given
Reading: higher = stronger binding
Starting sequence: RBL2 docking peptide (human); STTRRRLFVENDS; partner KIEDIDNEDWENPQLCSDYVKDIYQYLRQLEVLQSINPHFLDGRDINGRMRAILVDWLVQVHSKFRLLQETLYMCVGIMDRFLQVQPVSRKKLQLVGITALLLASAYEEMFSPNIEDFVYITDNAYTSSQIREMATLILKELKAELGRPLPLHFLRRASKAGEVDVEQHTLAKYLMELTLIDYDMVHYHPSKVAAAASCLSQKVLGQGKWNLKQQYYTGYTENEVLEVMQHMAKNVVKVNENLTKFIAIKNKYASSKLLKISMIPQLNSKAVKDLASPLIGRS
Variant	normalised enrichment score
SHTRRRLFVENDS [T2H]	0.496
STTRRKLFVENDS [R6K]	0.74
SKTRRRLFVENDS [T2K]	1.3
STTRRRLFVEEDS [N11E]	0.42
STTRRRLFVPNDS [E10P]	0.465

Further values, each from its own experiment
Molecule	target	assay	system	setting	scale	quantity	result
PhoQ, residues 284 288 289 292 302 303 SSTLSG	PhoP, residues 12 14 15 18 19 NIMAP (Escherichia coli, UniProt P23836)	Sort-seq, item: YFP reporter	E. coli	PhoQ-PhoP variant library, together with: 10 µM Mg2+	reference: high Mg2+ state, higher = stronger signaling	fold induction	0.754
